Measurements collected from several papers.
± gives the spread as reported.

Structure (SMILES) | cell line | assay | conditions | IC50
C=C[CH2][Pd-]([Cl])[Cl].CC(C)c1cccc(C(C)C)c1-n1c[n+](-c2c(C(C)C)cccc2C(C)C)c2c1-c1cccc3cccc-2c13 | 2008 | cell growth, MTT | 72 h | 5.5 ± 0.3 µM
CC(=O)O[C@@H]1CC[C@@]2(C)[C@@H](CC[C@]3(C)[C@@H]2C(=O)C=C2[C@@H]4[C@@H](C)[C@H](C)CC[C@]4(C)CC[C@]23C)[C@@]1(C)C(=O)NCCNC(=O)CCCCCCCCCCBr | HBE | cell growth or viability, MTT | 48 h | > 30 µM
COc1c(O)cc2oc3cc4c(c(O)c3c(=O)c2c1CC=C(C)C)C=CC(C)(C)O4 | SW480 | cell growth or viability | 48 h | 17.4 µM
CCCC(CCC)C(=O)[O][Pt]([NH2])([NH2])([Cl])([Cl])[O]C(=O)c1ccccc1OC(C)=O | BCPAP | cell growth or viability, MTT | 72 h | 0.01 µM
COc1ccc2cc3[n+](cc2c1OCc1cn(Cc2c(F)cccc2F)nn1)CCc1cc2c(cc1-3)OCO2 | SW1990 | cell growth or viability, MTT |  | 46.2 µM
C=C(CC)C(=O)c1ccc(OCC(=O)NCCNC(=O)COc2ccc(C(=O)C(=C)CC)c(Cl)c2Cl)c(Cl)c1Cl | A549/DDP | cell growth or viability, CCK-8 | 72 h | ~1.2 µM
COc1cc(/C=C/C(=O)CC(C)=O)ccc1O | mouse Splenic lymphocyte | cell growth or viability, MTT | 48 h | 20 µM
C=CC(OC(C)=O)c1ccc(OC)cc1 (stereo not shown) | HSC-4 | MTT | 24 h | > 50 µM
N=C(N)NCCC[C@H](N)C(=O)N[C@@H](CC(=O)N[C@@H](CC(=O)O)C(=O)O)c1cccc2ccccc12 | MCF-7 (no HER2 overexpression) |  |  | > 50 µM
CC(C)Cc1ccc(C(C)C(=O)[O][Pt]([NH2])([NH2])([Cl])([Cl])[O]C(=O)CCCc2ccccc2)cc1 (stereo not shown) | LoVo | cell growth or viability, MTT | 72 h | 0.211 µM
CC(C)c1cccc(C(C)C)c1N1CCN(c2c(C(C)C)cccc2C(C)C)C1=[Se].[Cl][Au] | LoVo | cell growth or viability, MTT | 72 h | 4.2 µM
Cc1cc(C#N)cc(C)c1Oc1cc(Nc2ccc(C#N)cc2)nc2cnccc12 | HuCC-A1 |  | 48 h | > 128 µM
CCOP(=O)(OCC)C(Cc1ccccc1F)Nc1ccccc1 (stereo not shown) | T98G | cell growth or viability, MTT | 48 h | 106 µM
CCCCCCCC(=O)Oc1c(C)c(OC)c2c(c1C)OC(=O)[C@@H](CCCCCC)[C@]2(O)/C=C/c1ccccc1 (racemic) | FaDu | cell growth or viability, SRB | 72 h | > 50 µM
CCCn1c(-c2cccnc2)nc(-c2ccc(C)cc2)c1-c1ccc(C)cc1 | L929 | cell growth or viability, SRB |  | 26.6 µM
Cc1ccc(/C=C2\CCCC3C2=NN(C(=O)c2ccncc2)C3c2ccc(C)cc2)cc1 (stereo not shown) | human erythrocytes | membrane protection, HRBC membrane stabilization |  | 0.25 µM
O=C(NCC1(c2nc(-c3ccccc3)cs2)CCOCC1)c1cccc(-c2noc(C(F)(F)F)n2)c1 | NB-4 | cell growth or viability, CCK-8 | 5 days | > 10 µM
CC(C)c1cccc(C(C)C)c1-n1ccn(-c2c(C(C)C)cccc2C(C)C)c1=[Se].[Cl][Au] | human ovarian cancer cells | cell viability, MTT | 72 h | 6.2 ± 0.9 µM
N[C@@H](CCC(=O)N[C@@H](CS[Se]Cc1ccc(-c2cc(C(F)(F)F)nn2-c2ccc(S(N)(=O)=O)cc2)cc1)C(=O)NCC(=O)O)C(=O)O | WM-115 melanoma cells | cell viability, MTS | 24 h, vertical stage | 30.1 ± 3.3 µM
N=C(N/N=C/c1ccc2ccc3cccc4ccc1c2c34)N/N=C/c1ccc2ccc3cccc4ccc1c2c34 | KP-4 | cell growth, crystal violet | 72 h | 163 ± 24.5 µM

Structure (SMILES) | cell line | assay | conditions | IC50
C[C@H]1[C@H](C)CC[C@]2(C)CC[C@]3(C)C(=CC(=O)[C@@H]4[C@@]5(C)CC[C@@H](O)[C@](C)(C(=O)NCCNC(=O)C6CC6)[C@@H]5CC[C@]43C)[C@H]12 | HBE | cell growth or viability, MTT | 48 h | 24.9 µM
Cc1cn([C@@H]2O[C@H](CO)[C@@H](O)[C@H](F)[C@H]2O)c(=O)[nH]c1=O | Molt4/C8 | cell growth or viability |  | > 200 µM
CC(C)(C)c1cc(=O)n2ncc(-c3ccc(F)cc3)c2[nH]1 | SW620 tumour organoids | cell viability | 72 h, 2% Matrigel, 0.4% DMSO | 3.3 µM
CCN(CC)CCNC(=O)c1c(C)[nH]c(/C=C2\C(=O)Nc3ccc(F)cc32)c1C | T98G | cell growth or viability, MTT | 72 h | 3 µM
COc1ccc2cc3[n+](cc2c1OCc1cn(Cc2c(Cl)cc(Cl)cc2Cl)nn1)CCc1cc2c(cc1-3)OCO2 | SW1990 | cell growth or viability, MTT |  | 13.3 µM
Cc1cc(N)c2cc(NC(=O)CCCCCC(=O)Nc3ccc4nc(C)cc(N)c4c3)ccc2n1 | CHO wild type | FGF2 binding to heparan sulfate, inhibitor, flow cytometry | on ice, with: biotinylated FGF2 2.5 nM | > 100 µM
CC(=O)OC[C@]1(C)CCC[C@]2(C)[C@@H]1CC[C@@]13C[C@@H](C[C@H](O)[C@H]12)[C@H](C)C3=O | HBE | cell growth or viability, MTT |  | 20 µM
CC(=O)O[C@@H]1CC[C@@]2(C)[C@@H](CC[C@]3(C)[C@@H]2C(=O)C=C2[C@@H]4[C@@H](C)[C@H](C)CC[C@]4(C)CC[C@]23C)[C@@]1(C)C(=O)NCCNC(=O)CCCCBr | HBE | cell growth or viability, MTT | 48 h | 4.88 µM
COc1ccc(C[C@H]2COC(=O)[C@@H]2Cc2ccc(OCCCCCCCCC(=O)NO)c(OC)c2)cc1OC | Kasumi 1 | cell growth or viability, CCK-8 | 48 h | > 5 µM
C=CC(=C)CC[C@]1(C)[C@H](C)C[C@H](OC(=O)CCCCCCC)[C@@]23C(=C[C@H](OC(C)=O)C[C@@H]12)[C@@H](OC(C)=O)O[C@H]3OC(C)=O | KB | cell growth or viability, SRB |  | 5.16 µM
Cc1ccc2oc(-c3c4c(N)n[nH]c(=O)c4nn3-c3ccc(NC(=O)/C=C/CN(C)C)cc3)c(C)c2c1 | H1581 (FGFR1 amplified) | cell proliferation |  | 0.0018 ± 0.0004 µM
OC[C@H]1[C@@H](O)[C@@H](O)CN1CCc1ccccc1 | U2OS | cell growth or viability, MTS | 72 h | > 200 µM
C=C1C(=O)[C@@]23CC[C@@H]4C(C)(C)CCC[C@@]4(COC(C)=O)[C@@H]2[C@@H](O)C[C@@H]1C3 (single isomer, unassigned) | HBE | cell growth or viability, MTT |  | 9.6 µM
N#C/C(=C\c1cn(-c2ccccc2)nc1-c1ccc(Cl)cc1)c1nc2ccccc2[nH]1 | SW1990 | cell growth or viability, ATP luminescence | 72 h | > 100 µM
CC1(C)CCC(CN2CCN(c3ccc(C(=O)NS(=O)(=O)c4ccc(NCC5COCCO5)c([N+](=O)[O-])c4)c(N4CCCOc5nc6[nH]ccc6cc54)c3)CC2)=C(c2ccc(Cl)cc2)C1 (stereo not shown) | RS4;11 | apoptosis, TMRM and annexin V | 72 h | 0.00193 µM
CC1CC(=O)N(CCCCCN)N=C1c1ccc(NC(=O)N2Cc3ccncc3C2)cc1 (stereo not shown) | MDA-MB-453 | cell growth or viability, ATP luminescence |  | < 3e-05 µM
Cc1cc(N)c2cc(NC(=O)CCCCC(=O)Nc3ccc4nc(C)cc(N)c4c3)ccc2n1 | CHO wild type | FGF2 binding to heparan sulfate, inhibitor, flow cytometry | on ice, with: biotinylated FGF2 2.5 nM | 8.4 ± 1.2 µM
CC(C)c1cccc(C(C)C)c1-n1c(Cl)c(Cl)n(-c2c(C(C)C)cccc2C(C)C)c1=[Se].[Cl][Ag] | human ovarian cancer cells | cell viability, MTT | 72 h | 4.4 ± 1.2 µM
Cc1cc(C#N)cc(C)c1Oc1cc(Nc2ccc(C#N)cc2)nc2ccncc12 | HuCC-A1 |  | 48 h | > 128 µM
CCn1nc(Cl)c2c1-c1cnc(N)c(c1)O[C@H](C)c1cc(F)ccc1-c1nn(C)cc1C2 | wild-type ALK fusion cell lines | cell viability | geometric mean over 8 lines | < 0.0011 µM

Structure (SMILES) | cell line | assay | conditions | IC50
CC1=CC(C(F)(F)F)=[O+][Pt-2]([NH3+])([NH3+])[O]1.CC1=CC(C(F)(F)F)=[O+][Pt-2]([NH3+])([NH3+])[O]1.O=S(=O)([O-])[O-] (stereo not shown) | U2OS | cell growth or viability, MTT |  | 4.1 µM
CC1=C2[O][Ru-]([Cl])[O+]=C2C=CN1CCCN1C=CC2=[O+][Ru-]([Cl])[O]C2=C1C.Cc1ccc(C(C)C)cc1.Cc1ccc(C(C)C)cc1 | LCLC-103H | cell growth or viability, crystal violet | 96 h | > 20 µM
C=CC(=O)Nc1cc(Nc2nccc(-c3c(-c4cccc(F)c4)n(C)c4ccccc34)n2)c(OC)cc1N(C)CCN(C)C | NCI-H1975 EGFR T790M/L858R |  | 72 h | 0.0438 ± 0.0005 µM
CCOP(=O)(OCC)C(Cc1ccc(F)cc1)Nc1ccc(Cl)cc1 (stereo not shown) | T98G | cell growth or viability, MTT | 48 h | 73.5 µM
C=C1C2CC3C4N5CC6(C)CCCC47C6C5CC3(C1O)C7C2 (stereo not shown) | HBE | cell growth or viability, MTT |  | 39.9 µM
C=CC(OC(C)=O)c1cc(OC)cc(OC)c1 (stereo not shown) | HSC-4 | MTT | 24 h | > 50 µM
CC(=O)O[C@@H]1CC[C@@]2(C)[C@@H](CC[C@]3(C)[C@@H]2C(=O)C=C2[C@@H]4[C@@H](C)[C@H](C)CC[C@]4(C)CC[C@]23C)[C@@]1(C)C(=O)NCCNC(=O)CC[P+](c1ccccc1)(c1ccccc1)c1ccccc1 | HBE | cell growth or viability, MTT | 48 h | 18.3 µM
N=C(N/N=C/c1ccc(Cl)cc1)N/N=C/c1ccc(Cl)cc1 | KP-4 | cell growth or viability, crystal violet | 72 h | 36.6 µM
COCC12CCC(OC)C34C5CC6(O)C(O)C5C(O)(C(O)C6OC)C(CC13)C4N(C)C2 (stereo not shown) | HBE | cell growth or viability, MTT |  | 27.3 µM
N=C(N/N=C/c1ccccn1)N/N=C/c1ccccn1 | KP-4 | cell growth or viability, crystal violet | 72 h | 5.4 µM
COc1ccc(-c2nn(-c3ccccc3)cc2/C=C(\C#N)c2nc3ccccc3[nH]2)cc1 | SW1990 | cell growth or viability, ATP luminescence | 72 h | 57.6 µM
COC(=O)[C@H]1[C@H]2C[C@H]3O[C@@]4(CCN3C[C@H]2C[C@@H](OC(=O)c2cc(OC)c(OC)c(OC)c2)[C@@H]1OC)C(=O)Nc1cc(OC)c(-c2ccc(F)cc2)cc14 | RS4-11 | cell growth or viability, trypan blue | 72 h | 3.52 µM
CCCCn1cc(C(=O)O)c(=O)c2cc(F)c(Nc3cc(OC)c(OC)c(OC)c3)c(N)c21 | periodontal ligament fibroblasts | cell viability, SRB | 72 h | 7.52 ± 0.14 µM
COc1ccc2nc(NC(=O)c3ccc(C(N)c4ccccc4)cc3)sc2c1 (stereo not shown) | NCI-H1155 | cell viability |  | > 10 µM
CCCCCCCCC=CCCCCCCCC(=O)OCC1OC(n2ccc(N)nc2=O)C(F)(F)C1O (stereo not shown) | Molt4/C8 | cell growth or viability |  | 0.088 µM
COC(=O)[C@@H]1[C@@H](OC)[C@H](OC(=O)c2cc(OC)c(OC)c(OC)c2)C[C@@H]2CN3CC[C@]4(O[C@@H]3C(=O)[C@@H]21)C(=O)Nc1cc(OC)ccc14 | RS4-11 | cell growth or viability, trypan blue | 72 h | 2.97 µM
COc1ccc2cc3[n+](cc2c1OCc1cn(Cc2ccc(Cl)cc2Cl)nn1)CCc1cc2c(cc1-3)OCO2 | SW1990 | cell growth or viability, MTT |  | 28.1 µM
COc1cc(-c2cc(=O)c3c(O)cc(OC4OC(COC5OC(C)C(O)C(O)C5O)C(O)C(O)C4O)cc3o2)ccc1O (stereo not shown) | HCT-116 p53-/- colon cancer | cytotoxicity, resazurin reduction | 72 h | > 100 µM

Excerpt of the above:
Structure (SMILES) | cell line | assay | conditions | IC50
CC1CC(=O)N(CCCCCN)N=C1c1ccc(NC(=O)N2Cc3ccncc3C2)cc1 (stereo not shown) | MDA-MB-453 | cell growth or viability, ATP luminescence |  | < 3e-05 µM
Cc1cc(N)c2cc(NC(=O)CCCCC(=O)Nc3ccc4nc(C)cc(N)c4c3)ccc2n1 | CHO wild type | FGF2 binding to heparan sulfate, inhibitor, flow cytometry | on ice, with: biotinylated FGF2 2.5 nM | 8.4 ± 1.2 µM
CC(C)c1cccc(C(C)C)c1-n1c(Cl)c(Cl)n(-c2c(C(C)C)cccc2C(C)C)c1=[Se].[Cl][Ag] | human ovarian cancer cells | cell viability, MTT | 72 h | 4.4 ± 1.2 µM
